# Experimental data pooled from the literature.
# Numbered parts are unrelated; each lists some results of a single study.
# Chain of UniProt Q9H1R3 (whole entry, looked up): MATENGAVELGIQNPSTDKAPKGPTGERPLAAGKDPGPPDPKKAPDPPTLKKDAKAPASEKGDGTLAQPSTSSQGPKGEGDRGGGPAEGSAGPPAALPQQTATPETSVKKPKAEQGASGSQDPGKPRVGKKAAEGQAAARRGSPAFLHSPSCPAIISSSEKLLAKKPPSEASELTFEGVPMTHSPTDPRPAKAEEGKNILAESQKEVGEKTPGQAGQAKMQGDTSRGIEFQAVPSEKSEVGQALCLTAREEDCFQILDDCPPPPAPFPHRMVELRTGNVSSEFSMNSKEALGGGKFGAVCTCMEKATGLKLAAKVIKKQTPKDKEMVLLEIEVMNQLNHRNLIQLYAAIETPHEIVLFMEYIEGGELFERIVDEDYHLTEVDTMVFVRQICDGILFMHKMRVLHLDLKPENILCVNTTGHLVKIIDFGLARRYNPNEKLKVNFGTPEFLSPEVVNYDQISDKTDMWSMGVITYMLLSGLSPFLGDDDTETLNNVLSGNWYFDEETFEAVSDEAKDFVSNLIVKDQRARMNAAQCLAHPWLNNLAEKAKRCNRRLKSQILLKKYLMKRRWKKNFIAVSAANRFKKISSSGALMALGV
# Chain of UniProt Q8WTQ7 (whole entry, looked up): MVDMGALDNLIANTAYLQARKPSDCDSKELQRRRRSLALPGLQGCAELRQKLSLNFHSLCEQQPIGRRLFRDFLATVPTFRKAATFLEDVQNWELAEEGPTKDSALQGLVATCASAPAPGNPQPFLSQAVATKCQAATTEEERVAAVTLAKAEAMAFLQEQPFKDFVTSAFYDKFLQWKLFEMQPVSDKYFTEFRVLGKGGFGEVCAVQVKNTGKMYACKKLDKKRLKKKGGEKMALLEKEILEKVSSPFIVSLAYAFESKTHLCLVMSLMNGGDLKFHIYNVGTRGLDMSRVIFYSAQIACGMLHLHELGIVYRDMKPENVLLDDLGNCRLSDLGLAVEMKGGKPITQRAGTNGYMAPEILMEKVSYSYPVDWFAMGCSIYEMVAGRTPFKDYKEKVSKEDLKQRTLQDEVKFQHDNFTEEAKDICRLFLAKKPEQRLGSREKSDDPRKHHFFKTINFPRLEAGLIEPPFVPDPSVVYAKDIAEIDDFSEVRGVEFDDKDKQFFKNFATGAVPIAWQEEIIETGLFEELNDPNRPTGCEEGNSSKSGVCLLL
# Chain of UniProt Q16288 (whole entry, looked up): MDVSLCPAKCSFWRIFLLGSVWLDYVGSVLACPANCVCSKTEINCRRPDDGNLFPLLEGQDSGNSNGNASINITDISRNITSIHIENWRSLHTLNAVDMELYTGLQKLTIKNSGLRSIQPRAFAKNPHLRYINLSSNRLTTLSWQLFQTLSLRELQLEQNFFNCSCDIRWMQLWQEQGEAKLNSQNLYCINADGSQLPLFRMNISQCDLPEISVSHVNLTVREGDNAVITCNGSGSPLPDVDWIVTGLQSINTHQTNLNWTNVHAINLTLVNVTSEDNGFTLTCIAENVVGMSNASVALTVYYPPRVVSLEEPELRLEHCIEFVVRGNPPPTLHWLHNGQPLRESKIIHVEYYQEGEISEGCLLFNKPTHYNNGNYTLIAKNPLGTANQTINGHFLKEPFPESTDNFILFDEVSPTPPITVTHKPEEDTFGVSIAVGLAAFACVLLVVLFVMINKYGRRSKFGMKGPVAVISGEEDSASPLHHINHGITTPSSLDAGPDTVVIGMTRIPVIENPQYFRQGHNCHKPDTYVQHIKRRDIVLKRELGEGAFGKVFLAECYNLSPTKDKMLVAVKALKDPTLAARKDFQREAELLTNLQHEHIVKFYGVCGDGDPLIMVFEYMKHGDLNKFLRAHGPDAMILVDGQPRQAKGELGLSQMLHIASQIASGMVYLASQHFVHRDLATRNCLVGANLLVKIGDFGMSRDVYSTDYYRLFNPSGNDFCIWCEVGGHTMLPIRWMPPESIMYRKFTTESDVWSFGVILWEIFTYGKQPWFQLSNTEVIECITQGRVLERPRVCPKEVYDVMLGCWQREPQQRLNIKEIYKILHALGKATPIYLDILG
# Chain of UniProt O15111 (whole entry, looked up): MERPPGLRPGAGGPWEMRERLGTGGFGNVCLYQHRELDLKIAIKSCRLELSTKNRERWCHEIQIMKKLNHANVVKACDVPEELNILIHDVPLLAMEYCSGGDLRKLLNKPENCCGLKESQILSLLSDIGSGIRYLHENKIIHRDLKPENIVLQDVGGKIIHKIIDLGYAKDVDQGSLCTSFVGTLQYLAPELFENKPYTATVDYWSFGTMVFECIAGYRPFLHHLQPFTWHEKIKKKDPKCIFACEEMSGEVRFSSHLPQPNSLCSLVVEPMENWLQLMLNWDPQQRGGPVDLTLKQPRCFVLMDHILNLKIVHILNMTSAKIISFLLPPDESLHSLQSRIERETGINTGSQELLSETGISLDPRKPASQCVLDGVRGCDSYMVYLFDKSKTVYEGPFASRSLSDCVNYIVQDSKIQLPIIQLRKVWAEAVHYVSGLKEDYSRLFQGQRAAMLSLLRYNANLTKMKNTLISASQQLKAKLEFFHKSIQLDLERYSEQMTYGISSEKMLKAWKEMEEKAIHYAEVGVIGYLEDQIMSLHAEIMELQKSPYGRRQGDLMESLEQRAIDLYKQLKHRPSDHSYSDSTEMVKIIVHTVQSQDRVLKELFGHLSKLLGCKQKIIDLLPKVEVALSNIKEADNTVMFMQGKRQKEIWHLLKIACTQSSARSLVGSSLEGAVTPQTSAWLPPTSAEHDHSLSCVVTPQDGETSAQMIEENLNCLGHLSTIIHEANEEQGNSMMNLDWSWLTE
# Chain of UniProt Q9Y6E0 (whole entry, looked up): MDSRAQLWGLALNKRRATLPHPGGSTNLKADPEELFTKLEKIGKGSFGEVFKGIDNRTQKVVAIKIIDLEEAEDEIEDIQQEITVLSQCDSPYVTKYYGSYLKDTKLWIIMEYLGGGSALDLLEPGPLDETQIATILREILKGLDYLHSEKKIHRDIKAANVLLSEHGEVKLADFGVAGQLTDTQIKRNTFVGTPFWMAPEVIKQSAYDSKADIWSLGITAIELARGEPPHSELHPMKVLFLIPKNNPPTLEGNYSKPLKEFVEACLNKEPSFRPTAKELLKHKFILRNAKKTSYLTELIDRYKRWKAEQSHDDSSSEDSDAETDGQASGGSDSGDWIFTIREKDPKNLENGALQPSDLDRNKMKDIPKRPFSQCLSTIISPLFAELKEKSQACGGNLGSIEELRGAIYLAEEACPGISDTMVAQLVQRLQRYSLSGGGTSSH
# Chain of UniProt O00238 (whole entry, looked up): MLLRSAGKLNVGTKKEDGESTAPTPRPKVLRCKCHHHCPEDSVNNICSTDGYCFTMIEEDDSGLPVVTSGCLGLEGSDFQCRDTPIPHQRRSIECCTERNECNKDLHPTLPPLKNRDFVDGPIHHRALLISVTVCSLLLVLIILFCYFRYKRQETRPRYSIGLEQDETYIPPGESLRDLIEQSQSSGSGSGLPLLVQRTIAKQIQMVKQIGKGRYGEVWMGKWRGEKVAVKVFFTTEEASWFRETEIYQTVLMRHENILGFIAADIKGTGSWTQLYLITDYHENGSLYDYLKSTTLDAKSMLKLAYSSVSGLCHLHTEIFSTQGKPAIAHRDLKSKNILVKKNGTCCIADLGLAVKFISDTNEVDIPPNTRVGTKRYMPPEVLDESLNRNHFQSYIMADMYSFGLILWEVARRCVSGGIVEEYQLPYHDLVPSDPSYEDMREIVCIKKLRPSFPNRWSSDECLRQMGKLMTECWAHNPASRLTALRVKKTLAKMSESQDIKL
# Chain of UniProt P48730 (whole entry, looked up): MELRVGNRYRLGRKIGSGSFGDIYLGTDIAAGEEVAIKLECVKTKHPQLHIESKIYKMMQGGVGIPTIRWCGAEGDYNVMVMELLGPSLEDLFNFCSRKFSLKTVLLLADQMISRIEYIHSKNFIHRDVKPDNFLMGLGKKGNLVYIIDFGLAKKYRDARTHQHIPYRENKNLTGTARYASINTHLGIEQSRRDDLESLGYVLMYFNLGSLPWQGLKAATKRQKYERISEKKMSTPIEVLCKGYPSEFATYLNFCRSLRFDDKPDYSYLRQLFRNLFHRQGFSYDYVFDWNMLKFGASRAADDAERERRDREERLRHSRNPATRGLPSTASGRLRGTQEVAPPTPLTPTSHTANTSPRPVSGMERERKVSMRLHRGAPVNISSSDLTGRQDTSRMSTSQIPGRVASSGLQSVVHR
# Chain of UniProt Q86UX6 (whole entry, looked up): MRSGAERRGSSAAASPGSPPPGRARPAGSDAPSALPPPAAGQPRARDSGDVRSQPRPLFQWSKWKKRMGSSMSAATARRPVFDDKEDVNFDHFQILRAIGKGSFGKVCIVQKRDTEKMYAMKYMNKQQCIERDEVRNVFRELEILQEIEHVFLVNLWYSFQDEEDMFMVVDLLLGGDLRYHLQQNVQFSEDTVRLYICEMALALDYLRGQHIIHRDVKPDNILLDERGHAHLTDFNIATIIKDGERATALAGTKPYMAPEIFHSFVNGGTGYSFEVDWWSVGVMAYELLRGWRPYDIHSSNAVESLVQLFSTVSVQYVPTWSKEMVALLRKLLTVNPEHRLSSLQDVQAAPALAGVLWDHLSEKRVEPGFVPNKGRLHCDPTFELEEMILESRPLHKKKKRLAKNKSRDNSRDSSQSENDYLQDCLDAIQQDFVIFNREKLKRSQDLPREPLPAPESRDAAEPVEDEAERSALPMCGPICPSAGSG

# Series 1
# Structure (SMILES): COc1ccc2[nH]c3c4[nH]c5ccc(OC)cc5c4c4c(c3c2c1)C(=O)NC4=O
# Tested at: 1 µM
target,method,refers to,setting,baseline,remaining binding [%]
"Homeodomain-interacting protein kinase 1 (HIPK1, Homo sapiens, UniProt Q86Z02)",competitive binding panel,,,vehicle,56
"Serine/threonine-protein kinase MARK1 (MARK1, Homo sapiens, UniProt Q9P0L2)",competitive binding panel,,,vehicle,100
"Rhodopsin kinase GRK7 (GRK7, Homo sapiens, UniProt Q8WTQ7)",competitive binding panel,,,vehicle,64
"Myosin light chain kinase 2, skeletal/cardiac muscle (MYLK2, Homo sapiens, UniProt Q9H1R3)",competitive binding panel,,,vehicle,82
"Phosphatidylinositol 4-kinase beta (PI4KB, Homo sapiens, UniProt Q9UBF8)",competitive binding panel,PIK4CB,,vehicle,100
"Serine/threonine-protein kinase 24 (STK24, Homo sapiens, UniProt Q9Y6E0)",competitive binding panel,MST3,,vehicle,76
"Myosin-IIIa (MYO3A, Homo sapiens, UniProt Q8NEV4)",competitive binding panel,,,vehicle,81
"NT-3 growth factor receptor (NTRK3, Homo sapiens, UniProt Q16288)",competitive binding,,TRKC,,47
"Muscle, skeletal receptor tyrosine-protein kinase (MUSK, Homo sapiens, UniProt O15146)",competitive binding panel,,,vehicle,83
"Serine/threonine-protein kinase ULK1 (ULK1, Homo sapiens, UniProt O75385)",competitive binding panel,,,vehicle,100
"Serine/threonine-protein kinase RIO2 (RIOK2, Homo sapiens, UniProt Q9BVS4)",competitive binding panel,,,vehicle,89
"Dual specificity mitogen-activated protein kinase kinase 3 (MAP2K3, Homo sapiens, UniProt P46734)",competitive binding panel,MEK3,,vehicle,46

# Series 2
# Target: Serine/threonine-protein kinase 25 (STK25, Homo sapiens, UniProt O00506)
# Chain of UniProt O00506 (whole entry, looked up): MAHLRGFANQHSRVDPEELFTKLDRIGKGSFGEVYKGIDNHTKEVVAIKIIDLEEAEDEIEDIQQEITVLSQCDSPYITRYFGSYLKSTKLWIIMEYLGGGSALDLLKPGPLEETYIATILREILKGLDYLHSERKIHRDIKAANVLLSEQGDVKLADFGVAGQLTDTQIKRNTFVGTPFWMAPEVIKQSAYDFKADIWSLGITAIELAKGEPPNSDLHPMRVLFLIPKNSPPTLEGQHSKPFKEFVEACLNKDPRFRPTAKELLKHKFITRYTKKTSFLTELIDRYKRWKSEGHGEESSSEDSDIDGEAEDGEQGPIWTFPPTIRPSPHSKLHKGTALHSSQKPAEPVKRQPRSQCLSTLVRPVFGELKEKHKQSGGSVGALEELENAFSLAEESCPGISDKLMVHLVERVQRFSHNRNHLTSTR
# Observed: enzyme activity
# Mode: inhibitor
# Tested at: 0.5 µM
# Baseline: control
SMILES,remaining activity
Ic1cccc(CSc2nnc(-c3ccncc3)o2)c1,96.2%
O=C(NC(NC(=S)Nc1ccc(F)c([N+](=O)[O-])c1)C(Cl)(Cl)Cl)C(c1ccccc1)c1ccccc1 (stereo not shown),96.2%
N#Cc1c(NC(=O)c2cccc3ccccc23)sc2c1CCCC2,95.7%
Cn1nc2c3c(cccc31)C(=O)c1ccccc1-2,96.5%
c1ccc(-c2[nH]ncc2-c2ccnc3ccccc23)nc1,96.9%
Cc1nc2cc3nc(-c4cccs4)cnc3cc2n1C,97.3%
CN(C)C[C@H]1CCn2c(c(C3=C(c4cn(C)c5ccccc45)C(=O)NC3=O)c3ccccc32)C1,96%
Nc1cccc(-c2cc3c(Oc4cccc(O)c4)ncnc3[nH]2)c1,91.6%
Cc1cn(-c2cc(NC(=O)c3ccc(C)c(Nc4nccc(-c5cccnc5)n4)c3)cc(C(F)(F)F)c2)cn1,97.5%
COc1cc2ncnc(Nc3cccc(Cl)c3)c2cc1OC,101%
c1ccc(-c2cnc(Nc3ccc(OCCN4CCCC4)cc3)s2)cc1,95.5%
N#C/C(=C\c1ccc(O)c(O)c1)C(=O)NCc1ccccc1,101%
CCOc1nc(NC(=O)Cc2cc(OC)ccc2OC)cc(N)c1C#N,94.5%
C[C@@H]1CCN(C(=O)CC#N)C[C@@H]1N(C)c1ncnc2[nH]ccc12,97.2%
O=C1c2ccccc2-c2n[nH]c3cccc1c23,91%
O=C1C(Cl)=C(N2C(=O)CCC2=O)C(=O)c2ccccc21,107%
O=C(Nc1cccc(Nc2nccc(Nc3cccc(C(F)(F)F)c3)n2)c1)C1CC1,98.1%
COc1cc2ncnc(Nc3ccc(O)c(Br)c3)c2cc1OC,99.6%
CCN(CC)CCNC(=O)c1c(C)[nH]c(/C=C2\C(=O)Nc3ccc(Cl)cc32)c1C,56.1%
COc1cc2c(cc1OC)-c1[nH]nc(Nc3cccc(F)c3)c1C2,103%
CN([C@@H](Cc1ccc(OS(=O)(=O)c2cccc3cnccc23)cc1)C(=O)N1CCN(c2ccccc2)CC1)S(=O)(=O)c1cccc2cnccc12,98.8%
CCN(CC)C(=O)c1ccc(Nc2nc(OCC3CCCCC3)c3[nH]cnc3n2)cc1,85.2%
Cc1cc2ncc(-c3ccccc3)nc2cc1C,92.5%
O=c1cc(-c2cccc3c2Sc2ccccc2S3)oc(N2CCOCC2)c1,99.6%

# Series 3
# Compound: CC(C)n1cnc(-c2ccc(F)cc2)c1-c1ncc(C(=O)Nc2ccc(N3CCN(C)CC3)cc2)[nH]1
# Method: phase 2a trial
# Species: idiopathic pulmonary fibrosis patients
refers to,dose,setting,adverse event incidence [%]
weight decreased,30 mg once daily,grade 3,0
chronic gastritis,dose not given,"grade 1, all arms pooled",0
arthritis,dose not given,"grade 4, all arms pooled",0
carotid intima-media thickening,30 mg once daily,grade 2,0
arthritis,30 mg once daily,grade 2,0
carotid intima-media thickening,60 mg once daily,grade 4,0
ECG ST segment abnormal,30 mg once daily,grade 3,0
drug eruption,60 mg once daily,grade 3,0
arthritis,60 mg once daily,grade 1,0
general and administration site disorders,dose not given,"grade 3, all arms pooled",0
general and administration site disorders,60 mg once daily,grade 5,0
immunoglobulins increased,60 mg once daily,grade 2,0

# Series 4
# SMILES: O=C(O)c1cc(-c2ccc(C3CCNCC3)cc2)c2ccc(-c3ccc(C(F)(F)F)cc3)cc2c1
# Method: competition with immobilised ligand
# Tested at: 1 µM
target,observed,remaining binding
"Cyclin-dependent kinase 17 (CDK17, Homo sapiens, UniProt Q00537)",cell-free assay,100%
"Serine/threonine-protein kinase 36 (STK36, Homo sapiens, UniProt Q9NRP7)",cell-free assay,100%
"Receptor-type tyrosine-protein kinase FLT3 (FLT3, Homo sapiens, UniProt P36888, D835H)",cell-free assay,81%
"Epidermal growth factor receptor (EGFR, Homo sapiens, UniProt P00533, T790M)",cell-free assay,96%
"Casein kinase II subunit alpha' (CSNK2A2, Homo sapiens, UniProt P19784)",cell-free assay,100%
"Ribosomal protein S6 kinase alpha-2, N-terminal kinase domain (RPS6KA2, Homo sapiens, UniProt Q15349)",cell-free assay,100%
"Maternal embryonic leucine zipper kinase (MELK, Homo sapiens, UniProt Q14680)",cell-free assay,98%
"Serine/threonine-protein kinase 32C (STK32C, Homo sapiens, UniProt Q86UX6)",cell-free assay,100%
"Inhibitor of nuclear factor kappa-B kinase subunit alpha (CHUK, Homo sapiens, UniProt O15111)",cell-free assay,87%
"Tyrosine-protein kinase TXK (TXK, Homo sapiens, UniProt P42681)",binding,100%
"Serine/threonine-protein kinase 10 (STK10, Homo sapiens, UniProt O94804)",cell-free assay,100%
"Activin receptor type-1B (ACVR1B, Homo sapiens, UniProt P36896)",cell-free assay,100%
"Casein kinase I isoform delta (CSNK1D, Homo sapiens, UniProt P48730)",cell-free assay,100%
"Serine/threonine-protein kinase Nek5 (NEK5, Homo sapiens, UniProt Q6P3R8)",cell-free assay,100%
"Serine/threonine-protein kinase Nek3 (NEK3, Homo sapiens, UniProt P51956)",cell-free assay,100%
"Serine/threonine-protein kinase SBK1 (SBK1, Homo sapiens, UniProt Q52WX2)",cell-free assay,100%
"Myosin light chain kinase 2, skeletal/cardiac muscle (MYLK2, Homo sapiens, UniProt Q9H1R3)",cell-free assay,100%
"Mitogen-activated protein kinase kinase kinase 1 (MAP3K1, Homo sapiens, UniProt Q13233)",cell-free assay,100%
"Cyclin-dependent kinase 13 (CDK13, Homo sapiens, UniProt Q14004)",cell-free assay,100%
"Serine/threonine-protein kinase SIK2 (SIK2, Homo sapiens, UniProt Q9H0K1)",cell-free assay,100%
"Mitogen-activated protein kinase kinase kinase 4 (MAP3K4, Homo sapiens, UniProt Q9Y6R4)",cell-free assay,100%
"Mitogen-activated protein kinase 11 (MAPK11, Homo sapiens, UniProt Q15759)",cell-free assay,100%
"LIM domain kinase 2 (LIMK2, Homo sapiens, UniProt P53671)",cell-free assay,100%
"BMP-2-inducible protein kinase (BMP2K, Homo sapiens, UniProt Q9NSY1)",cell-free assay,84%
"Bone morphogenetic protein receptor type-1B (BMPR1B, Homo sapiens, UniProt O00238)",cell-free assay,100%

# Repeated from above (series 1):
target,method,refers to,setting,baseline,remaining binding [%]
"Rhodopsin kinase GRK7 (GRK7, Homo sapiens, UniProt Q8WTQ7)",competitive binding panel,,,vehicle,64
"Myosin light chain kinase 2, skeletal/cardiac muscle (MYLK2, Homo sapiens, UniProt Q9H1R3)",competitive binding panel,,,vehicle,82
"Phosphatidylinositol 4-kinase beta (PI4KB, Homo sapiens, UniProt Q9UBF8)",competitive binding panel,PIK4CB,,vehicle,100
"Serine/threonine-protein kinase 24 (STK24, Homo sapiens, UniProt Q9Y6E0)",competitive binding panel,MST3,,vehicle,76
"Myosin-IIIa (MYO3A, Homo sapiens, UniProt Q8NEV4)",competitive binding panel,,,vehicle,81
